Measurements gathered from unrelated publications.
Numbers after ± are the reported error.
CNR2: Cannabinoid receptor 2 (CNR2, Homo sapiens, UniProt P34972)
Sequence of UniProt P34972 (whole entry, looked up): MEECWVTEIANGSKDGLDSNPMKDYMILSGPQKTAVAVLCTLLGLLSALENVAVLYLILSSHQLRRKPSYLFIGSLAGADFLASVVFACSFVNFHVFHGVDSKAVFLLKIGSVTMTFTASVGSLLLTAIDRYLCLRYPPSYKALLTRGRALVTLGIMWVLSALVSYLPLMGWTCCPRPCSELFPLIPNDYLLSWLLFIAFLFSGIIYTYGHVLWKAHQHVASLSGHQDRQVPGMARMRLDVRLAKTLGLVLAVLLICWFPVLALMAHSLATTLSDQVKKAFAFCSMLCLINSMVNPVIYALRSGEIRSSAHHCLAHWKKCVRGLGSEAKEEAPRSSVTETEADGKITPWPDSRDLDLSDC
agrC: Receptor-histidine kinase AgrC (agrC, Staphylococcus aureus, UniProt O07911)
OPRK1: Kappa-type opioid receptor (OPRK1, Homo sapiens, UniProt P41145)
Sequence of UniProt P41145 (whole entry, looked up): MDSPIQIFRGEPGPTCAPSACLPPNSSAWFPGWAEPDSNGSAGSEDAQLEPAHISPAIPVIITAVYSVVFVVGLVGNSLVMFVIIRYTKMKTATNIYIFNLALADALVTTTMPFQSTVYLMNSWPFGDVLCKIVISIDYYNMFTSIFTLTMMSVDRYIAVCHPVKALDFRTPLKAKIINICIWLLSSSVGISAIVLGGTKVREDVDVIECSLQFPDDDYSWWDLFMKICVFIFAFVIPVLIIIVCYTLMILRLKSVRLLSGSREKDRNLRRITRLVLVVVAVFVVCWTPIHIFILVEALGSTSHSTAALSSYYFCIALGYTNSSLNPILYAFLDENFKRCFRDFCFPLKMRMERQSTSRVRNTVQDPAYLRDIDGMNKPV
Sequence of UniProt P30988 (whole entry, looked up): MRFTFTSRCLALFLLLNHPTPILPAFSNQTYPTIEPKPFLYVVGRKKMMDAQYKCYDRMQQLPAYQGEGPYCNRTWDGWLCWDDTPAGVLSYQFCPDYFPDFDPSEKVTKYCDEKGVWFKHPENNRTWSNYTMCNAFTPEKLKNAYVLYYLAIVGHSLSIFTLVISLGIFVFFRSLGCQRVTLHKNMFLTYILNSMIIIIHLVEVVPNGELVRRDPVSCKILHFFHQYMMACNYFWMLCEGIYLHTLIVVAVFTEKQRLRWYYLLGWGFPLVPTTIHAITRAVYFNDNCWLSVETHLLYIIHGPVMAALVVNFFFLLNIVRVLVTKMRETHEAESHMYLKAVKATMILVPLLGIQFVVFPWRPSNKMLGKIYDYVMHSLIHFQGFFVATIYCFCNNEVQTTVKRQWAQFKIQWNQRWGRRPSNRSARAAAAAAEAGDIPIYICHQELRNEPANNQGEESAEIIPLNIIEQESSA
Sequence of UniProt Q9UKP6 (whole entry, unmodified, looked up): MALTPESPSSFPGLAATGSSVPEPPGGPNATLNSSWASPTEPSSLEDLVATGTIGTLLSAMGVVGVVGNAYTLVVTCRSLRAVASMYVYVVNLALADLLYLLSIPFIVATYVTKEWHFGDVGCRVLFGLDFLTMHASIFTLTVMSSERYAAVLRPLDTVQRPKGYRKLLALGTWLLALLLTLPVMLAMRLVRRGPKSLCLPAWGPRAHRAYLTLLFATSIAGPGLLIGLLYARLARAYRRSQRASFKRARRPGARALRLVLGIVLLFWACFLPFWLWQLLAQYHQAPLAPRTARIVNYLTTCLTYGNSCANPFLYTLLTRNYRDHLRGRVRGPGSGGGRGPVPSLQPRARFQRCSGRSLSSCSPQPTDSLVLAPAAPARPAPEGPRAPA
Sequence of UniProt P23811 (whole entry, looked up): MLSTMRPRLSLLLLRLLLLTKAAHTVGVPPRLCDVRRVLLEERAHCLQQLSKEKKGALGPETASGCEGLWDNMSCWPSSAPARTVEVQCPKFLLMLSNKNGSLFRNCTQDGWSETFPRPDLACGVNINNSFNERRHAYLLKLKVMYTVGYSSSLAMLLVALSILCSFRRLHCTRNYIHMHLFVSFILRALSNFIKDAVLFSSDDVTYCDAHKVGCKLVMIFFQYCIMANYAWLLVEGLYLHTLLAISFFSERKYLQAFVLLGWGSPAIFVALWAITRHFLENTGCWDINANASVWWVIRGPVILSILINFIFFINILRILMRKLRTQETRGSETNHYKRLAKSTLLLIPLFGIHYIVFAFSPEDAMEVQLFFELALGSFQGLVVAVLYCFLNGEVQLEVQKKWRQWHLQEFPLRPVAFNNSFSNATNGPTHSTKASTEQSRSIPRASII
Sequence of UniProt Q704Y3 (whole entry, unmodified, looked up): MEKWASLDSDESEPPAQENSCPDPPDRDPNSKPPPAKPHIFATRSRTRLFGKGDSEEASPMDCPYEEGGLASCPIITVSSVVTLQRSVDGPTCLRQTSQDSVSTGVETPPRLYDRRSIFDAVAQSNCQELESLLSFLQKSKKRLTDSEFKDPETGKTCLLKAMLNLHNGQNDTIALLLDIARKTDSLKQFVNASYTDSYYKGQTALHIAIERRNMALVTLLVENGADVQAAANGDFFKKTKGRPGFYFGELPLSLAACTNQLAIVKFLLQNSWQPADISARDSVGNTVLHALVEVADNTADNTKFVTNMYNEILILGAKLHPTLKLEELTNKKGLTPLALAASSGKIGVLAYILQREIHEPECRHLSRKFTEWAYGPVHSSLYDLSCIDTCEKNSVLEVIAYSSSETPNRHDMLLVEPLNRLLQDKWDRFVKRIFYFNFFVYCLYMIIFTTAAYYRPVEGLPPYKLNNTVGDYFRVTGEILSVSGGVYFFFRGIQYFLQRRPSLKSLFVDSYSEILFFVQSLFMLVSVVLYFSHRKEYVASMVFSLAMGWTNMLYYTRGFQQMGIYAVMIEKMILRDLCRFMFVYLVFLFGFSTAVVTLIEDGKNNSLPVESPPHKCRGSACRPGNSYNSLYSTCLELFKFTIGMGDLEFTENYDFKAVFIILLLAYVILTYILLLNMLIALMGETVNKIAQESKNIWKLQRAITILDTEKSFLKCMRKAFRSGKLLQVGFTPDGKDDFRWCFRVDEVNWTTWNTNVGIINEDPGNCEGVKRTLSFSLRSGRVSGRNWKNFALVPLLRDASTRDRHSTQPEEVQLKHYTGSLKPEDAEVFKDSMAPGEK
Sequence of UniProt O96013 (whole entry, looked up): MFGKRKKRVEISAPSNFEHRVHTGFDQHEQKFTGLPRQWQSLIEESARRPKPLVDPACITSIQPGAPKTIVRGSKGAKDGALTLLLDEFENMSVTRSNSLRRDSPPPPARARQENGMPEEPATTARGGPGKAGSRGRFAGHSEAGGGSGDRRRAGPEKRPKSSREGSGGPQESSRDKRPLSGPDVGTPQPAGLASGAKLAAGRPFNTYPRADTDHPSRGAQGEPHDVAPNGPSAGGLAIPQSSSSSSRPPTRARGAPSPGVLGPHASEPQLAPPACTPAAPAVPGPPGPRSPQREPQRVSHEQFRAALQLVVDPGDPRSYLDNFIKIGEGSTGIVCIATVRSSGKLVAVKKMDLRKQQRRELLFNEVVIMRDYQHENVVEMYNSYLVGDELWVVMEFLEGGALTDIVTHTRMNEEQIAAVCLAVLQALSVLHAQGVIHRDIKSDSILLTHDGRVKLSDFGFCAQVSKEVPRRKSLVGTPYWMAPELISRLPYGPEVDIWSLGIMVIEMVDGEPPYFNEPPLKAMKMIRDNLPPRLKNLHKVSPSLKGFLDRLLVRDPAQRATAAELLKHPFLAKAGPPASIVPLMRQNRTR
Sequence of UniProt O60894 (whole entry, looked up): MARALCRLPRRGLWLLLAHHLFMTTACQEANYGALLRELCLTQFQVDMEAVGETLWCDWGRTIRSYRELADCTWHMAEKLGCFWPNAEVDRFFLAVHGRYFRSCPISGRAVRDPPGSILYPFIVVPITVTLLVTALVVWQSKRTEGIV
Sequence of UniProt Q00987 (whole entry, looked up): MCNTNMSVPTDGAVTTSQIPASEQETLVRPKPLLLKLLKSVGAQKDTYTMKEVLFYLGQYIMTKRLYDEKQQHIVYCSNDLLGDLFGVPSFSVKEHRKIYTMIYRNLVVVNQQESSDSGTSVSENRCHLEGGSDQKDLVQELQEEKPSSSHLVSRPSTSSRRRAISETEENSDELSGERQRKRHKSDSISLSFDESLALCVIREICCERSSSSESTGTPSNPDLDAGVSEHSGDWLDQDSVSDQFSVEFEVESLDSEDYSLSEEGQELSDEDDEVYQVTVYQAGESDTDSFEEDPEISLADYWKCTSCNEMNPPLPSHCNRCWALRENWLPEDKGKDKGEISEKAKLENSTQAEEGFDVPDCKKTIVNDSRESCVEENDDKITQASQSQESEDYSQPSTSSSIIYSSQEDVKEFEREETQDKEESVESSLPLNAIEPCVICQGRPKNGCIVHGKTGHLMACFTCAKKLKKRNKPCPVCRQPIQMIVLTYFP
Sequence of UniProt Q6DWJ6 (whole entry, looked up): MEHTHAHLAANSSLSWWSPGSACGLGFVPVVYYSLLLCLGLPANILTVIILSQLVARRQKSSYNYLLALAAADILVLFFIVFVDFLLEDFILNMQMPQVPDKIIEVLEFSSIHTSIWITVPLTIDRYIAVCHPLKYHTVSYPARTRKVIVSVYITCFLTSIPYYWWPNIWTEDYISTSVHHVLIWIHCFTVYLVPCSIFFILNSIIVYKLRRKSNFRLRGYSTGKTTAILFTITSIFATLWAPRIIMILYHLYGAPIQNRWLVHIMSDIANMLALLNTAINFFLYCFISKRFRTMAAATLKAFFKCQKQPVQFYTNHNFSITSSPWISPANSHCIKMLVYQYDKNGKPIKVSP
Sequence of UniProt P14867 (whole entry, looked up): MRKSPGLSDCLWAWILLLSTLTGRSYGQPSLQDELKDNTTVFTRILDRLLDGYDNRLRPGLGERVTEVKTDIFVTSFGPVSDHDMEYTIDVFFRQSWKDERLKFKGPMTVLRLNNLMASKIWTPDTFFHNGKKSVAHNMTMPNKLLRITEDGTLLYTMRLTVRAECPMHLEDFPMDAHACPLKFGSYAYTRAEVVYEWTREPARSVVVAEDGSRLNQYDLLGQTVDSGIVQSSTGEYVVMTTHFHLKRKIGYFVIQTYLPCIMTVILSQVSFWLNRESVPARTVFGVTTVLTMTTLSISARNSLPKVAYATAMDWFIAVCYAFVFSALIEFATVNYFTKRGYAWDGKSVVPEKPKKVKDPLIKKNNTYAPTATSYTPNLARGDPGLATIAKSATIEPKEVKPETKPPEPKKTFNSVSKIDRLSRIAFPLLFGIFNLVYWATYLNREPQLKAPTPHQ

Structure (SMILES)	target	test	test system	conditions	EC50 [nM]
O=C(O)CCn1c(=O)oc2cc(Cl)c(Cl)cc21	CNR2	agonist			> 100000
CC[C@H](C)[C@@H]1NC(=O)[C@H](Cc2ccccc2)NC(=O)[C@H](C)NC(=O)[C@@H](NC(=O)[C@@H](NC(=O)[C@H](CO)NC(=O)[C@@H](N)Cc2ccc(O)cc2)[C@@H](C)O)CSC(=O)[C@H](CCSC)NC1=O	agrC		Staphylococcus aureus cells		> 10000
CC[C@H](C)[C@@H](C(=O)N[C@@H](CC(C)C)C(=O)N[C@@H](CO)C(=O)N[C@@H](CO)C(=O)N[C@H](C(=O)N[C@@H](CC(N)=O)C(=O)N[C@H](C(=O)NCC(=O)N[C@@H](CO)C(=O)N[C@@H](CC(N)=O)C(=O)N[C@H](C(=O)N[C@@H](Cc1ccc(O)cc1)C(N)=O)[C@@H](C)O)C(C)C)[C@@H](C)O)N(C)C(=O)[C@H](C)NC(=O)CN(C)C(=O)[C@H](Cc1ccccc1)NC(=O)[C@H](CC(N)=O)NC(=O)[C@H](CC(N)=O)NC(=O)[C@H](CO)NC(=O)[C@H](CO)NC(=O)[C@H](CCCNC(=N)N)NC(=O)[C@@H](NC(=O)[C@H](CC(C)C)NC(=O)[C@H](Cc1ccccc1)NC(=O)[C@H](CC(N)=O)NC(=O)[C@H](C)NC(=O)[C@H](CC(C)C)NC(=O)[C@H](CCCNC(=N)N)NC(=O)[C@H](CCC(N)=O)NC(=O)[C@@H](NC(=O)[C@H](C)NC(=O)[C@@H]1CSSC[C@H](NC(=O)[C@H](CCCCN)NC(=O)CC[C@H](NC(=O)CCCCCCCCCCCCCCCCCCC(=O)O)C(=O)O)C(=O)N[C@@H](CC(N)=O)C(=O)N[C@@H]([C@@H](C)O)C(=O)N[C@@H](C)C(=O)N[C@@H]([C@@H](C)O)C(=O)N1)[C@@H](C)O)C(C)C	Calcitonin receptor (CALCR, Homo sapiens, UniProt P30988)	cAMP, agonist			13.2
Cc1cc(C(c2ccc(Cl)cc2)c2ccc(Cl)cc2)sc1C(=O)N[C@@H](CCCNC(=N)N)C(=O)O	C3a anaphylatoxin chemotactic receptor (C3ar1, Mus musculus, UniProt O09047)	β-arrestin-1 recruitment, agonist, NanoBiT			46.8
CC[C@H](C)[C@@H]1NC(=O)[C@H](Cc2ccccc2)NC(=O)CCNC(=O)[C@@H](NC(=O)[C@@H](NC(=O)[C@H](CO)NC(=O)[C@@H](N)Cc2ccc(O)cc2)[C@@H](C)O)CSC(=O)[C@H](CCSC)NC1=O	agrC		Staphylococcus aureus cells		> 10000
CC[C@H](C)[C@H](NC(=O)[C@H](CCCNC(=N)N)NC(=O)[C@H](CCCNC(=N)N)NC(=O)[C@H](CC(C)C)NC(=O)[C@H](Cc1ccccc1)NC(=O)CNC(=O)CNC(=O)[C@@H](N)Cc1ccc(O)cc1)C(=O)N[C@@H](CCCNC(=N)N)C(=O)N1CCC[C@H]1C(=O)N[C@@H](CCCCN)C(=O)N[C@@H](CC(C)C)C(=O)N[C@@H](CCCCN)C(=O)O	Probable G-protein coupled receptor 139 (GPR139, Homo sapiens, UniProt Q6DWJ6)	calcium response, agonist, BRET	HEK293T/17, transfected		13030 ± 100
CC(C)C[C@H](NC(=O)[C@H](CCC(N)=O)NC(=O)[C@H](CCCNC(=N)N)NC(=O)[C@@H](N)CS)C(=O)N[C@@H](CCCNC(=N)N)C(=O)N[C@@H](CCCCN)C(=O)NCC(=O)N[C@@H](CCCCN)C(=O)N[C@@H](Cc1ccccc1)C(=O)N[C@@H](Cc1ccccc1)C(=O)N[C@@H](CO)C(=O)N[C@@H](CCC(=O)O)C(=O)NCC(=O)NCC(=O)N[C@@H](CO)C(=O)NCC(=O)NCC(=O)N[C@H](C(=O)N[C@@H](CO)C(=O)N[C@@H](Cc1ccccc1)C(=O)N[C@@H](CCC(=O)O)C(=O)N[C@@H](CCC(N)=O)C(=O)N[C@@H](Cc1ccccc1)C(=O)N[C@@H](Cc1c[nH]c2ccccc12)C(=O)N[C@@H](C)C(=O)N[C@@H](Cc1c[nH]c2ccccc12)C(=O)N[C@@H](CC(C)C)C(=O)N[C@@H](Cc1c[nH]c2ccccc12)C(=O)N1CCC[C@H]1C(=O)O)[C@@H](C)O	PAK4/MDM2 (Homo sapiens, UniProt O96013+Q00987)	ternary complex formation, fluorescence polarization			347
CC[C@H](C)[C@@H]1NC(=O)[C@H](Cc2ccccc2)NC(=O)[C@H](CC(=O)O)NC(=O)[C@@H](NC(=O)[C@@H](NC(=O)[C@H](CO)NC(=O)[C@@H](N)Cc2ccc(O)cc2)[C@@H](C)O)CSC(=O)[C@H](CCSC)NC1=O	agrC		Staphylococcus aureus cells		11
CN1CC[C@]23c4c5ccc(O)c4C[C@H]2[C@@H](O)C=C[C@H]3[C@H]1C5	OPRK1		cell-based		122
CC(C)[C@H](NC(=O)[C@@H]1CSSC(C)(C)[C@H](NC(=O)[C@@H](N)CC(=O)O)C(=O)N[C@@H](Cc2ccccc2)C(=O)N[C@@H](Cc2c[nH]c3ccccc23)C(=O)N[C@@H](CCCCN)C(=O)N[C@@H](Cc2ccc(O)cc2)C(=O)N1)C(=O)O	Urotensin-2 receptor (UTS2R, Homo sapiens, UniProt Q9UKP6, R166A)	IP1 accumulation, agonist, HTRF	HEK293T	1 h, 37 °C, R166A mutant, 4.42	1
O=C(Cc1ccc(F)c(Cl)c1)N1CCN[C@@H]2COC[C@H](N3CCCC3)[C@H]21 (relative stereo)	OPRK1				390 ± 100
Cc1cc(O)cc(C)c1C[C@H](N)C(=O)N[C@H](CCCNC(=N)N)C(=O)N[C@@H](Cc1ccccc1)C(=O)N(C)CC(=O)N(C)Cc1cc(C(F)(F)F)cc(C(F)(F)F)c1	Delta-type opioid receptor (OPRD1, Homo sapiens, UniProt P41143)	β-arrestin recruitment, agonist			52.6
CC[C@H](C)[C@H](NC(=O)[C@H](C)NC(=O)CNC(=O)[C@H](Cc1ccccc1)NC(=O)[C@H](CC(N)=O)NC(=O)[C@H](CC(N)=O)NC(=O)[C@H](CO)NC(=O)[C@H](CO)NC(=O)[C@H](Cc1c[nH]cn1)NC(=O)[C@@H](NC(=O)[C@H](CC(C)C)NC(=O)[C@H](Cc1ccccc1)NC(=O)[C@H](CC(N)=O)NC(=O)[C@H](C)NC(=O)[C@H](CC(C)C)NC(=O)[C@H](CCCNC(=N)N)NC(=O)[C@H](CCC(N)=O)NC(=O)[C@@H](NC(=O)[C@H](C)NC(=O)[C@@H]1CSSC[C@H](NC(=O)[C@H](CCCCN)NC(=O)[C@H](CCCNC(=N)N)NC(=O)[C@H](CCCCN)NC(=O)[C@H](CCC(=O)O)NC(=O)[C@@H](NC(=O)[C@H](CCC(N)=O)NC(=O)[C@H](Cc2c[nH]cn2)NC(=O)[C@H](CO)NC(=O)[C@H](CCC(=O)O)NC(=O)[C@@H](NC(=O)[C@@H]2CCCN2C(=O)[C@@H](N)[C@@H](C)O)[C@@H](C)CC)C(C)C)C(=O)N[C@@H](CC(N)=O)C(=O)N[C@@H]([C@@H](C)O)C(=O)N[C@@H](C)C(=O)N[C@@H]([C@@H](C)O)C(=O)N1)[C@@H](C)O)C(C)C)C(=O)N[C@@H](CC(C)C)C(=O)N[C@@H](CO)C(=O)N[C@@H](CO)C(=O)N[C@H](C(=O)N[C@@H](CC(N)=O)C(=O)N[C@H](C(=O)NCC(=O)N[C@@H](CO)C(=O)N[C@@H](CC(N)=O)C(=O)N[C@H](C(=O)N[C@@H](Cc1ccc(O)cc1)C(N)=O)[C@@H](C)O)C(C)C)[C@@H](C)O	Amylin receptor AMY1, CALCR/RAMP1 (Homo sapiens, UniProt O60894+P30988)	cAMP accumulation, agonist	COS-7, transfected		1.78
O=C(Cc1ccc(Cl)c(Cl)c1)N1CCNC2COCC(N3CCCC3)C21 (stereo not shown)	OPRK1	β-arrestin recruitment, agonist			11000
CCCCC/C=C\C/C=C\C/C=C\C/C=C\CCCC(=O)NCCc1ccc(O)c(O)c1	Transient receptor potential cation channel subfamily V member 1 (Trpv1, Mus musculus, UniProt Q704Y3, N552Q)	ion current, agonist, whole-cell patch clamp		24 °C, N552Q, +80 mV	60 ± 20
C[C@@]12CC[C@@H]3[C@H](CC[C@@H]4C[C@@H](O)CC[C@]43C)[C@H]1CC(=O)C2	GABA-A receptor; GABA-A site (alpha1/beta2 interface) (Homo sapiens, UniProt P14867+P47870)				4540
CCCCCn1ccc(C(=O)NC(C)(C)c2ccccc2)n1	CNR2	calcium signal, agonist			> 10000
CC(C)C[C@H](NC(=O)CNC(=O)[C@H](CCC(N)=O)NC(=O)[C@H](CC(C)C)NC(=O)[C@H](CC(C)C)NC(=O)[C@H](CCCNC(=N)N)NC(=O)[C@H](CCC(N)=O)NC(=O)[C@H](CC(C)C)NC(=O)[C@H](CCCNC(=N)N)NC(=O)[C@H](C)NC(=O)[C@H](CO)NC(=O)[C@H](CC(=O)O)NC(=O)[C@H](CCC(N)=O)NC(=O)[C@H](CC(C)C)NC(=O)[C@H](CCCNC(=N)N)NC(=O)[C@H](CO)NC(=O)[C@H](Cc1ccc(O)cc1)NC(=O)[C@H](CCC(=O)O)NC(=O)[C@H](CO)NC(=O)[C@@H](NC(=O)[C@H](Cc1ccccc1)NC(=O)[C@@H](NC(=O)[C@H](Cc1ccc(C(=O)c2ccccc2)cc1)NC(=O)[C@H](CC(=O)O)NC(=O)[C@H](CO)NC(=O)[C@@H](N)Cc1c[nH]cn1)[C@@H](C)O)[C@@H](C)O)C(=O)N[C@H](C(N)=O)C(C)C	Sctr (Rattus norvegicus, UniProt P23811)	agonist			> 1000
CCN(Cc1ccccc1)C(=O)CCc1nc(CN2CCN(C(=O)Cc3ccc(OC)c(OC)c3)CC2)no1	Sodium channel protein type 10 subunit alpha (Scn10a, Rattus norvegicus, UniProt Q62968)	activation V1/2 shift, activator, whole-cell patch clamp	rat DRG neurons, NaV1.8 current		37.6 ± 2.96

For quick reference, copied from above:
Structure (SMILES)	target	test	test system	conditions	EC50 [nM]
O=C(O)CCn1c(=O)oc2cc(Cl)c(Cl)cc21	CNR2	agonist			> 100000
